Experimental data collected from several papers.
Each numbered part is a random draw from the data of one study; scales do not carry over between parts. Substitutions count along the parent as printed.
Chain of UniProt Q5VT25 (whole entry, looked up): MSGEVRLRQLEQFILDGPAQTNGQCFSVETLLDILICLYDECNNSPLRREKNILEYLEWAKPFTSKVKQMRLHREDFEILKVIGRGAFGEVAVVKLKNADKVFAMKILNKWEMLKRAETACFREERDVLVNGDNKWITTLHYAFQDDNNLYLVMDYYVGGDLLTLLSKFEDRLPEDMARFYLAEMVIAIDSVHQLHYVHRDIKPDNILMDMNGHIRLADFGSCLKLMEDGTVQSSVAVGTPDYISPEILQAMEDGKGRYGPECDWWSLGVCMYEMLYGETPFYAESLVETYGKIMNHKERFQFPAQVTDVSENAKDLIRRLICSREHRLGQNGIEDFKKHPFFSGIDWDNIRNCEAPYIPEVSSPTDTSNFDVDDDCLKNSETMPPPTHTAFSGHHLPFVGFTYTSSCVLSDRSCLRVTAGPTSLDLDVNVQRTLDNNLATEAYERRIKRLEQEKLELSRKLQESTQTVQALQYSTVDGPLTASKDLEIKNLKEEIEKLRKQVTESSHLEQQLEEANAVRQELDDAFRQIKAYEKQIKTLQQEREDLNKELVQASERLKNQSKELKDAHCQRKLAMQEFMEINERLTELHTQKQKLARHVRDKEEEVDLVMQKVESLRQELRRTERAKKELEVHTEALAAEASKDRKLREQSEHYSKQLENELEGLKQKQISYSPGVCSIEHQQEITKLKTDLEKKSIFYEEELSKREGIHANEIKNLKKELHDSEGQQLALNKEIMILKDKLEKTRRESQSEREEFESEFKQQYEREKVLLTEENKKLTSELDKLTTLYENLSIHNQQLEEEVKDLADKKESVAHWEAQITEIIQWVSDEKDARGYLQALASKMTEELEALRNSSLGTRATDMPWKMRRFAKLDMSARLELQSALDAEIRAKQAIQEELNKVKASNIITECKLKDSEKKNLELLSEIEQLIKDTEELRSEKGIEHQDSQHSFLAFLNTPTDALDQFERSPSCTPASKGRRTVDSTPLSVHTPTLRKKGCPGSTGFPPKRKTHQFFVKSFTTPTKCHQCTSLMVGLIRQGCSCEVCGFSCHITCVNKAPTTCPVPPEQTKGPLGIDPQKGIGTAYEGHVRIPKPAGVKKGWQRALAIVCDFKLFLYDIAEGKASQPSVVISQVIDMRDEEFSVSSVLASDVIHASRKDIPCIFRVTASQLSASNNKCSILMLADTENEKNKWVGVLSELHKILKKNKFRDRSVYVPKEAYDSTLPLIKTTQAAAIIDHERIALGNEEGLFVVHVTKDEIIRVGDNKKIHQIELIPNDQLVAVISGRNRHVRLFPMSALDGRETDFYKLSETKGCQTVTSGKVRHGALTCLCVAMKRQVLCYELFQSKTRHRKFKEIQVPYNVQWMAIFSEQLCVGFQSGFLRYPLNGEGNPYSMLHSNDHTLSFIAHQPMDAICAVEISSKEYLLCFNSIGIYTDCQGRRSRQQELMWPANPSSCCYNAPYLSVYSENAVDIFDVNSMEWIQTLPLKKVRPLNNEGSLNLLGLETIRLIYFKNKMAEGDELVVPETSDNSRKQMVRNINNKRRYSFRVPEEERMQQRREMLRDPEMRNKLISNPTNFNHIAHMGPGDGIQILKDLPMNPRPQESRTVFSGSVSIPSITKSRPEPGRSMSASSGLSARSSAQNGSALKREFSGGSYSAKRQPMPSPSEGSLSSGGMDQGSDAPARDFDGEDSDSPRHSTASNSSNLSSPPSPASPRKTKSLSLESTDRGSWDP

Sample 1
Target: Hepatocyte nuclear factor 3-beta, forkhead domain (FOXA2, Homo sapiens, UniProt Q9Y261, residues 142-269)
Method: protein-binding microarray
Form: double-stranded DNA, one strand shown
Sample: in vitro
Tested at: not given
Setting: k-mer, scored over probes, only values ≥0.25
Reading: higher = stronger binding
Construct (chain): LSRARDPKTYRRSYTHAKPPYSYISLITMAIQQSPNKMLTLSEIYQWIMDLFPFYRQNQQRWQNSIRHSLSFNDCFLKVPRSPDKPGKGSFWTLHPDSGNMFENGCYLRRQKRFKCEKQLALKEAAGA
The E-score of `GTAAATCA` is reported as 0.282.
The E-score of `ATACAGAT` is reported as 0.283.
The E-score of `CGTACATA` is reported as 0.362.
`ACATAAGG` gave an E-score of 0.289.
With `GTATGAAA` the E-score was 0.268.
For `ATTATACA`, the E-score was 0.318.
For `AATAGATA`, the E-score was 0.253.
`ATATTACC` gave an E-score of 0.349.

Sample 2
Target: Runt-related transcription factor 1, full length (RUNX1, Homo sapiens, UniProt Q01196-8, residues 1-480)
Method: protein-binding microarray
Form: hairpin DNA
Sample: in vitro
Tested at: not given
Setting: whole hairpin DNA, median over replicate spots
Relative to: not given
Reading: higher = stronger binding
The median fluorescence of `CTCAGTTCTGTCGGCTGGACTCCTGTCCAGCCGACAGAACTGAGACACTC (5mC at 12)` is reported as 1730 a.u.
For `GAGGCCTCGTGCGGTTGGCCTCCTGGCCAACCGCACGAGGCCTCACACTC`, the median fluorescence was 3420 a.u.
`GAGGCCCGTTGTGGTTGGCCTCCTGGCCAACCACAACGGGCCTCACACTC (5mC at 37)` gave a median fluorescence of 3260 a.u.
With `GAGGCCTGTGGTGGTTGGCCTCCTGGCCAACCACCACAGGCCTCACACTC (5mC at 35)` the median fluorescence was 2100 a.u.
With `GAGGCCTGGCGCGGTTGGCCTCCTGGCCAACCGCGCCAGGCCTCACACTC` the median fluorescence was 2350 a.u.
For `CTCAGTTCTGTGGCGTGGACTCCTGTCCACGCCACAGAACTGAGACACTC (5mC at 14 30)`, the median fluorescence was 2020 a.u.
The median fluorescence of `GAGGCCTATTGCGGTTGGCCTCCTGGCCAACCGCAATAGGCCTCACACTC` is reported as 5540 a.u.
`CTCAGTTCTGTGGACTGGACTCCTGTCCAGTCCACAGAACTGAGACACTC` gave a median fluorescence of 1730 a.u.

Sample 3
Target: ABI1, truncated, D143A, DHFR fusion (Arabidopsis thaliana)
Method: DHFR PCA, deep sequencing
Sample: yeast
Setting: methotrexate growth selection, single substitutions
With: (+)-ABA 0 µM
Relative to: wild-type fitted maximum
Reading: higher = stronger binding
Starting sequence: PYL1, truncated, DHFR fusion (Arabidopsis thaliana); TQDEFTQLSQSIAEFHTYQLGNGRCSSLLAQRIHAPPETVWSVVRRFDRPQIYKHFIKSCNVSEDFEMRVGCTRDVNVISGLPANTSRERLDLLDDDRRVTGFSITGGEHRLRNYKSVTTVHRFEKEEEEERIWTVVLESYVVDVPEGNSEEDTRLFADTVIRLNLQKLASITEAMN; partner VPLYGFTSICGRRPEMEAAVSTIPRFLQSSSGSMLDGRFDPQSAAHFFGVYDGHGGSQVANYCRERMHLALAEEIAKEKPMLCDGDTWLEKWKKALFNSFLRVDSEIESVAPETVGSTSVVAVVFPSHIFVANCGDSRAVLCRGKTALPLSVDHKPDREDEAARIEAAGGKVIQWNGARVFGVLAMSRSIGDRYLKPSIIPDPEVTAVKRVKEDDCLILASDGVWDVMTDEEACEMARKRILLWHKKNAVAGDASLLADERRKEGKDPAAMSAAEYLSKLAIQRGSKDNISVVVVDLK
Under “relative binding score”, `F47K` is recorded as -2.46%.
`E14Y`: “relative binding score” 0.00137%.
For `S150A`, “relative binding score” read 14.3%.
Under “relative binding score”, `G21H` is recorded as 14.8%.
Under “relative binding score”, `S59A` is recorded as 13.1%.
`T160N` — result for “relative binding score”: -1.78%.
For `V142P`, “relative binding score” read -2.61%.
`A158M` — result for “relative binding score”: 10.4%.

Single results of other studies
The remaining binding of `COc1ccc2c(c1)O[C@@H](c1ccc(OC)c(OC)c1)C[C@H]2NC(=O)C1(c2ccc3c(c2)OC(F)(F)O3)CC1` is reported as 90% (Serine/threonine-protein kinase MRCK alpha (CDC42BPA, Homo sapiens, UniProt Q5VT25); cell-free assay, competition with immobilised ligand; 1 µM).

Repeated from above (sample 3):
Under “relative binding score”, `G21H` is recorded as 14.8%.
Under “relative binding score”, `S59A` is recorded as 13.1%.
`T160N` — result for “relative binding score”: -1.78%.
